Experimental data collected from several papers.
Each line is one published result; not all experiments were run side by side. ± marks the error that the study gave.

O=C([O-])CN1CCN(CC(=O)[O-])CCN(CC(=O)[O-])CCN(CC(=O)[O-])CC1.[64Cu+2]  tissue uptake (nude athymic mice, healthy, femur; intravenous, 4 h, 64Cu label): 0.55 %ID/g
C[C@H](CN(C)Cc1ccccc1)NC(=O)c1ccc(-c2noc(C(F)(F)[18F])n2)cc1  tissue uptake (PET imaging; female Sprague-Dawley rats, hippocampus; intravenous, 10 min): 2.86 ± 0.28 SUV
CN(C)c1ccc(-c2nc3ccc(OCCCCCN4CCN5CCN(CC4)CC(=O)[O][Al]([18F])[O]C(=O)C5)cc3s2)cc1  tissue uptake (ICR mouse, kidney; intravenous, 60 min): 3.83 ± 0.89 %ID/g
CCCC[C@H](NC(=O)CNC(=O)CNC(=O)CN1CCN(CC(=O)O)CCN(CC(=O)O)CCN(CC(=O)O)CC1)C(=O)N[C@H]1CC(=O)NCCCC[C@@H](C(N)=O)NC(=O)[C@H](Cc2c[nH]c3ccccc23)NC(=O)[C@H](CCCNC(=N)N)NC(=O)[C@@H](Cc2ccccc2)NC(=O)[C@H](Cc2c[nH]cn2)NC1=O [lead-203 labelled]  tissue uptake (C57 mouse, spleen; intravenous, 0.056 MBq, 2 h): 0.08 ± 0.09 %ID/g
CCCC[C@H](NC(=O)CNC(=O)CNC(=O)CN1CCN(CC(=O)O)CCN(CC(=O)O)CCN(CC(=O)O)CC1)C(=O)N[C@H]1CC(=O)NCCCC[C@@H](C(N)=O)NC(=O)[C@H](Cc2c[nH]c3ccccc23)NC(=O)[C@H](CCCNC(=N)N)NC(=O)[C@@H](Cc2ccccc2)NC(=O)[C@H](Cc2c[nH]cn2)NC1=O [gallium-67 labelled]  tissue uptake (female C57 mice, B16/F1 melanoma, liver; intravenous, 0.037 MBq, 4 h): 0.85 ± 0.02 %ID/g
OCc1cn(Cc2ccc(-c3noc(-c4ccc(OCC[18F])c(C(F)(F)F)c4)n3)cc2)nn1  tissue uptake (female Lewis rat, muscle; intravenous, 30 min): 0.59 ± 0.05 %ID/g
CC(C)[C@H](NC(=O)[C@@H]1CCCN1C(=O)[C@H](CCCNC(=N)N)NC(=O)[C@H](CS)NC(=O)[C@H](Cc1c[nH]c2ccccc12)NC(=O)[C@H](CCCNC(=N)N)NC(=O)[C@@H](Cc1ccccc1)NC(=O)[C@H](Cc1c[nH]cn1)NC(=O)[C@H](CCC(=O)O)NC(=O)[C@H](CS)NC(=O)[C@H](CS)NC(=O)CNC(=O)[C@@H]1CC(=O)N[C@@H](CCCNC(=N)N)C(=O)NCC(=O)N[C@@H](CC(=O)O)C(=O)N[C@H](Cc2ccc(O)cc2)C(=O)N1)C(N)=O [technetium-99m labelled]  tissue uptake (C57 mouse, female, B16/F1 melanoma, liver; intravenous, 0.037 MBq, 24 h): 0.72 ± 0.14 %ID/g
CN1C(=O)[C@@H](Cc2ccc(O)c(I)c2)NC(=O)CNC(=O)[C@H](Cc2ccc3ccccc3c2)NC(=O)[C@H](CCCNC(=N)N)NC(=O)[C@H]1CCCNC(=O)c1ccc(CNC(=O)CN2CCN(CC(=O)O)CCN(CC(=O)O)CCN(CC(=O)O)CC2)cc1 [lutetium-177 labelled]  tissue uptake (refers to: 177Lu radioactivity; female CB-17 SCID mice, Daudi xenograft, heart; intravenous, 0.16 nmol per mouse, 1 h): 0.9 ± 0.3 %ID/g
O=C([O-])CN1CCN(CC(=O)[O-])CCN(CC(=O)NCCc2ccc3c(c2)C2C=CCC2C(c2cc4c(cc2Br)OCO4)N3)CCN(CC(=O)[O-])CC1.[111In+3] (stereo not shown)  tissue uptake (mice with Hec50 tumour xenograft, bone; 2 h, together with: G-1 5 µg blocking): 0.21 ± 0.08 %ID/g
CCCC[C@@H]1NC(=O)[C@@H](NC(=O)[C@H](CCC(=O)O)NC(=O)CNC(=O)CN2CCN(CC(=O)O)CCN(CC(=O)O)CCN(CC(=O)O)CC2)CCCCNC(=O)C[C@@H](C(N)=O)NC(=O)[C@H](C(C)C)NC(=O)[C@@H]2CCCN2C(=O)[C@H](CCCNC(=N)N)NC(=O)CNC(=O)[C@H](Cc2c[nH]c3ccccc23)NC(=O)[C@H](CCCNC(=N)N)NC(=O)[C@@H](Cc2ccccc2)NC(=O)[C@H](Cc2c[nH]cn2)NC(=O)[C@H](CCC(=O)O)NC1=O [gallium-67 labelled]  tissue uptake (C57 mice with B16/F1 melanoma, liver; intravenous, 2 h): 0.23 ± 0.01 %ID/g

For quick reference, copied from above:
O=C([O-])CN1CCN(CC(=O)[O-])CCN(CC(=O)NCCc2ccc3c(c2)C2C=CCC2C(c2cc4c(cc2Br)OCO4)N3)CCN(CC(=O)[O-])CC1.[111In+3] (stereo not shown)  tissue uptake (mice with Hec50 tumour xenograft, bone; 2 h, together with: G-1 5 µg blocking): 0.21 ± 0.08 %ID/g
